Results gathered from unrelated publications.
Compare with care: the assays were run in different laboratories. Several values in a cell are separate wells, animals, samples, runs or records. ± marks the error that the study gave.

CN(C)C(=O)CNC(=O)c1ccc(C2CCCCC2)cc1  hepatic clearance (liver microsome stability; rat liver microsomes; 1 µM): 48 mL/min/kg
O=C(Nc1cc(-c2ccnc3[nH]ccc23)c(Cl)cn1)[C@H]1CCC[C@@H](NC(=O)C(F)(F)F)C1  hepatic clearance (human liver microsomes): 12 mL/min/kg
CS(=O)(=O)c1ccc(-c2ccc([C@H]3[C@@H](F)[C@@H](F)C[C@@H](F)[C@H]3F)cc2)cn1  hepatic clearance (hepatocyte stability; cryopreserved mouse hepatocytes; 1 µM): 21 mL/min/kg
Cc1noc(C)c1Cn1cc(N2C(=O)CN(Cc3cccc(OS(=O)(=O)O)c3)C2=O)cn1  plasma concentration (rat Sprague-Dawley male, plasma; oral, 100 mg/kg of parent drug, 2 h): 442 ± 81.9 ng/mL
CN(C)c1cccc(-c2ccc([C@H]3[C@@H](F)[C@@H](F)C[C@@H](F)[C@H]3F)cc2)c1  hepatic clearance (hepatocyte stability; cryopreserved human hepatocytes; 1 µM): 10 mL/min/kg
C=CC(=O)N1CCCC(n2c(=O)c3ncccc3n(Cc3ccc(Oc4ccccc4)cc3)c2=O)C1 (stereo not drawn)  compound remaining (metabolic stability; human, hepatocytes; 1 µM, 30 min): 77.3%
Cc1cc(F)ccc1-c1cc(N2C[C@@H](CO)N(CC(=O)O)C[C@H]2CO)ncc1N(C)C(=O)C(C)(C)c1cc(C(F)(F)F)cc(C(F)(F)F)c1  amount excreted in faeces (healthy male human; oral, 120 mg, up to 480 h cumulative; reference: dose): 4.67% and 4.7%
O=C(Nc1cnccc1-c1ccc([18F])cc1)c1ccnc(NC(=O)C2CC2)c1  SUV (mice, transgenic, GSK-3β, early-stage, large intestine; intravenous, dose not given, 120 min): 0.48
C=CC(=O)Nc1cc(Nc2nccc(-c3c[nH]c4ccccc34)n2)c(OC)cc1N(C)CCN(C)C  percentage recovery (storage stability; human dried blood spot samples; 30 d, -80 °C, LQC level; reference: nominal concentration): 43.4%
O=C(Nc1ccc(C2CCCCC2)cc1)C1(N2CCOCC2)CC1  hepatic clearance (hepatocyte stability; cryopreserved human hepatocytes; 1 µM): 18 mL/min/kg
C=Cc1ccccc1[B-]12OC(=O)C(c3ccccc3)=N[N+]1=C(CC)c1ccc(N(CC)CC)cc1O2 (stereo not drawn)  fluorescence emission maximum (toluene): 510 nm
Nc1ncc(-c2ccc(C3CCCCC3)cc2)cn1  hepatic clearance (liver microsome stability; rat liver microsomes; 1 µM): 40 mL/min/kg
COc1cccc(OC)c1-c1cc(C(=O)NC2(C(=O)O)C3CC4CC(C3)CC2C4)nn1-c1ccc(C(=O)NCCNC(=O)[C@H](CCCCNC(=O)[C@H](CC(C)C)NC(=O)C2OC2C(=O)O)NC(=O)CN2CCN(CC(=O)[O-])CCN(CC(=O)[O-])CCN(CC(=O)[O-])CC2)cc1C(C)C.[177Lu+3] (mixture of isomers)  tumour-to-kidney ratio (mouse, HT-29 xenograft; 4 h post injection, biodistribution; reference: tumour over kidney uptake): 1.35
C=C(NC(=O)c1csc(-c2nc3c(cc2O)-c2nc(cs2)C(=O)NC(C(C)O)C(=O)NC(=C(C)OC)c2nc(cs2)C(=O)NC2c4nc(cs4)C(=O)NC(COC(=O)c4c5c6c(cccc6n4O)COC(=O)C(OC4CC(C)(O)C(N(C)C)C(C)O4)C2OC5)c2nc-3cs2)n1)C(N)=O (stereo not drawn)  Tmax (ICR mice, Streptococcus pneumoniae ATCC 49169 infected, immunocompromised, blood; intravenous, 4 mg/kg/day twice daily): 4.8 min
COC1C=COC2(C)Oc3c(C)c(O)c4c(c3C2=O)C2=NC3(CCN(CC(C)C)CC3)NC2=C(NC(=O)C(C)=CC=CC(C)C(O)C(C)C(O)C(C)C(OC(=O)Nc2cscn2)C1C)C4=O (stereo not drawn)  fAUC/MIC ratio (CD-1 mouse, plasma; oral, dose not given, efficacy dose): 28
COc1cccc(OC)c1-c1cc(C(=O)NC2(C(=O)O)C3CC4CC(C3)CC2C4)nn1-c1ccc(C(=O)N(C)CCCN(C)C(=O)[C@H](CCCCNC(=O)[C@H](CC(C)C)NC(=O)C2OC2C(=O)O)NC(=O)CN2CCN(CC(=O)[O-])CCN(CC(=O)[O-])CCN(CC(=O)[O-])CC2)cc1C(C)C.[177Lu+3] (mixture of isomers)  tumour-to-blood ratio (mouse, HT-29 xenograft; 24 h post injection, biodistribution; reference: tumour over blood uptake): 20.3
CCCC[C@H](OC(C)=O)c1ccccc1C(=O)O  MRT(0-t) (Sprague-Dawley rats, both sexes, whole blood; intravenous, 5 mg/kg single dose): 2.1 ± 0.4 h
O=C(Nc1cnccc1-c1ccc([18F])nc1)c1ccnc(NC(=O)C2CC2)c1  SUV (FVB/NJ mice (both sexes), cortex; intravenous, dose not given, 120 min): 0.017
F[C@@H]1[C@H](c2ccc(-c3cncnc3)cc2)[C@H](F)[C@H](F)C[C@@H]1F  hepatic clearance (hepatocyte stability; cryopreserved mouse hepatocytes; 1 µM): 51 mL/min/kg
CC(C)=CCC1=C([O-])C(=O)c2ccccc2C1=O.CC(C)=CCC1=C([O-])C(=O)c2ccccc2C1=O.Cc1cc2cccnc2c2ncccc12.O.[Cu+2]  Epc2 cathodic peak potential (cyclic voltammetry; CH2Cl2, Bu4NPF6; 0.1 mM; reference: Ag/AgCl sat. KOH): 0.02 V
Fc1ccc(OCC2CN(Cc3cn4ccccc4n3)CCC2(F)F)cc1F (stereo not drawn)  fu (equilibrium dialysis; mouse plasma): 0.107
F[C@@H]1[C@H](c2ccc(-c3cnc(N4CCOCC4)nc3)cc2)[C@H](F)[C@H](F)C[C@@H]1F  hepatic clearance (liver microsome stability; rat liver microsomes; 1 µM): 31 mL/min/kg
CN(O)C(=O)CCC(=O)NCCCN(CCCCN(CCCNC(=O)CCC(=O)N(C)O)C(=O)CCC(=O)N(C)O)C(=O)CCC(=O)N(C)O.[89Zr]  intact complex (radio-TLC; aqueous buffer; 3 d, pH 7, 37 °C, 89Zr-labelled complex, with: DTPA 1000-fold excess): 91.6 ± 1.1%
C[C@@H](Nc1c(-c2c(F)cc(C#N)cc2F)c(Cl)nc2ncnn12)C(C)(C)C  hepatic intrinsic clearance (human liver microsomes; 2 µg/mL, pH 7.4): 0.33 mL/min/kg
Cc1cc(/C=C/C#N)cc(C)c1Oc1nc(NC2CCN(Cc3ccc(S(C)(=O)=O)cc3)CC2)nc2ncccc12  volume of distribution (Sprague-Dawley rat, plasma; intravenous, 2 mg/kg): 1.51 ± 0.154 L/kg
c1cc(C2CCCCC2)ccc1-c1cnc(N2CCOCC2)nc1  hepatic clearance (liver microsome stability; rat liver microsomes; 1 µM): 39 mL/min/kg
CC[C@H](C)[C@@H]1NC(=O)[C@H](Cc2ccc(O)cc2)NC(=O)CCCSC[C@@H](C(=O)N(CC(=O)N[C@@H](CC(C)C)C(=O)NCC(N)=O)Cc2ccc(F)cc2)NC(=O)[C@H](CC(N)=O)NC(=O)[C@H](CCC(N)=O)NC1=O  AE leading to discontinuation (human; intranasal and intravenous, 400 µg intranasal and 20 µg intravenous): 0%

For quick reference, copied from above:
CN(C)c1cccc(-c2ccc([C@H]3[C@@H](F)[C@@H](F)C[C@@H](F)[C@H]3F)cc2)c1  hepatic clearance (hepatocyte stability; cryopreserved human hepatocytes; 1 µM): 10 mL/min/kg
C=CC(=O)N1CCCC(n2c(=O)c3ncccc3n(Cc3ccc(Oc4ccccc4)cc3)c2=O)C1 (stereo not drawn)  compound remaining (metabolic stability; human, hepatocytes; 1 µM, 30 min): 77.3%
Cc1cc(F)ccc1-c1cc(N2C[C@@H](CO)N(CC(=O)O)C[C@H]2CO)ncc1N(C)C(=O)C(C)(C)c1cc(C(F)(F)F)cc(C(F)(F)F)c1  amount excreted in faeces (healthy male human; oral, 120 mg, up to 480 h cumulative; reference: dose): 4.67% and 4.7%
O=C(Nc1cnccc1-c1ccc([18F])cc1)c1ccnc(NC(=O)C2CC2)c1  SUV (mice, transgenic, GSK-3β, early-stage, large intestine; intravenous, dose not given, 120 min): 0.48
C=CC(=O)Nc1cc(Nc2nccc(-c3c[nH]c4ccccc34)n2)c(OC)cc1N(C)CCN(C)C  percentage recovery (storage stability; human dried blood spot samples; 30 d, -80 °C, LQC level; reference: nominal concentration): 43.4%
